{"data": "Published values gathered from unrelated publications", "note": "Each numbered part is a random draw from the data of one study; scales do not carry over between parts. Substitutions count along the parent as printed."}
{"data": "Series 1", "target": "CCNB2, cyclin fold, Cln2 fusion (human)", "technique": "yeast growth competition, sequencing", "matrix": "yeast", "notes": "strong parent motif", "baseline": "not given", "direction": "higher = stronger binding", "parent": "viral docking peptide; TSVRRALFTGGSD"}
{"Change": "S2T", "normalised enrichment score": 0.838}
{"Change": "V3C", "normalised enrichment score": 1.04}
{"Change": "F8T", "normalised enrichment score": -0.177}
{"Change": "L7D", "normalised enrichment score": -0.047}
{"Change": "S2W", "normalised enrichment score": -0.118}
{"Change": "T9H", "normalised enrichment score": 0.828}
{"Change": "L7E", "normalised enrichment score": 0.15}
{"Change": "G10E", "normalised enrichment score": 1.91}
{"Change": "A6C", "normalised enrichment score": 0.672}
{"Change": "L7K", "normalised enrichment score": 0.459}
{"Change": "R5W", "normalised enrichment score": 0.329}
{"Change": "G11R", "normalised enrichment score": 0.5}
{"Change": "G11I", "normalised enrichment score": 0.318}
{"Change": "S2H", "normalised enrichment score": 0.704}
{"Change": "L7R", "normalised enrichment score": 0.622}
{"Change": "V3I", "normalised enrichment score": 1.44}
{"Change": "R5K F8L", "normalised enrichment score": 0.347}
{"Change": "F8Q", "normalised enrichment score": 0.545}
{"data": "Series 2", "target": "Fragile X messenger ribonucleoprotein 1, C-terminal low-complexity region (Fmr1, Mus musculus, UniProt P35922)", "technique": "RNA Bind-n-Seq", "molecule type": "RNA", "matrix": "in vitro", "concentration": "200 nM", "notes": "whole 134-nt RNA, ends assumed", "with": "150 mM KCl", "baseline": "input library", "direction": "higher = stronger binding", "all sequences stand within": "GGGAGUUCUACAGUCCGACGAUC … UGGAAUUCUCGGGUGUCAAGG"}
{"Oligonucleotide": "AAGUCCUGUGCUACACAUCGUAUGUACCGAAUCAAACCCAAACCCAAAUUUUUAAAAAAGUAUUAUGUUACGCCGUUCGGAUCUGCACUU", "log2 enrichment": -0.201}
{"Oligonucleotide": "CUCAAGUCCUGUGCUACACAUCGUAUGUACCGAAUCGGAAGGGAAGGGAAGGGGAAAGUAUUAUGUUACGCCGUUCGGAUCUGCACUUCC", "log2 enrichment": 0.346}
{"Oligonucleotide": "AGUCCUGUGCUACACAUCGUAUGUACCGAAUCGGGCCCCCGGCCCCCGGCCCCCGGGAAAGUAUUAUGUUACGCCGUUCGGAUCUGCACU", "log2 enrichment": -0.517}
{"Oligonucleotide": "CCUCAAGUCCUGUGCUACACAUCGUAUGUACCGAAUCGGAAGGGGAAGGAAGGAAAGUAUUAUGUUACGCCGUUCGGAUCUGCACUUCCA", "log2 enrichment": -0.349}
{"Oligonucleotide": "UCCUCAAGUCCUGUGCUACACAUCGUAUGUACCGAAUCGGUGGUGGAAAGGAAAGUAUUAUGUUACGCCGUUCGGAUCUGCACUUCCAGC", "log2 enrichment": -0.113}
{"Oligonucleotide": "AGGCCCUGGUGGCAUGCGGGGAGGAAGAGGUGGCCUCAUGGAUCGUGGUGGUCCCGGUGGAAUGUUCAGAGGUGGCCGUGGUGGAGACAG", "log2 enrichment": 0.184}
{"Oligonucleotide": "UCCUGUGCUACACAUCGUAUGUACCGAAUCGGCCCCCCGGGCCCCCCGGGCCCCCCGGGGAAAGUAUUAUGUUACGCCGUUCGGAUCUGC", "log2 enrichment": -0.526}
{"Oligonucleotide": "UCCUGUGCUACACAUCGUAUGUACCGAAUCGGGAAAAAAGGAAAAAAGGGGAAAAAAGGGAAAGUAUUAUGUUACGCCGUUCGGAUCUGC", "log2 enrichment": -0.451}
{"data": "Series 3", "target": "UBE2W UBC core domain (UniProt Q96B02)", "technique": "yeast two-hybrid", "matrix": "yeast", "notes": "mostly zero background", "baseline": "not given", "direction": "higher = stronger interaction", "B1": "Ltn1 RING domain (UniProt Q6A009); chain VDKRFEGVEDCMICFSVIHGFNYSLPKKACRTCKKKFHSACLYKWFTSSNKSTCPLCRETFF", "B2": "DTX1 RING domain (UniProt Q86Y01); chain QKVKNPPDEDCTICMERLVTASGYEGVLRHKGVRPELVGRLGRCGHMYHLLCLVAMYSNGNKDGSLQCPTCKAIYGEKTGTQ", "Target sequence (chain)": "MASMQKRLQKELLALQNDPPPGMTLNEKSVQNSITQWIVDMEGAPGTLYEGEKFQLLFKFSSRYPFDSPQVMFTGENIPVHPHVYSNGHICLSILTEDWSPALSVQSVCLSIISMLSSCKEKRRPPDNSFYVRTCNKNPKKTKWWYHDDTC"}
{"Molecule": "B1 (Ltn1 RING domain)", "lacZ reporter activity": 0}
{"Molecule": "B2 (DTX1 RING domain)", "lacZ reporter activity": 0}
{"Molecule": "NTAPSLTVPECAICLQTCVHPVSLPCKHVFCYLCVKGASWLGKRCALCRQEIPEDFLDK (RNF146 RING domain (UniProt Q9NTX7))", "lacZ reporter activity": 0}
{"data": "Series 4", "target": "HLA class I histocompatibility antigen, A alpha chain, allele A*25:01 (Homo sapiens, UniProt P04439)", "read-out": "peptide-MHC binding", "molecule type": "peptide", "concentration": "concentration not given"}
{"Molecule": "LSDAARLFL", "binding": "inactive"}
{"Molecule": "YMLMGFQLK", "binding": "inactive"}
{"Molecule": "YGSWFGLIY", "binding": "inactive"}
{"data": "Mixed results", "technique": "two-hybrid", "baseline": "out of 4 tests", "direction": "higher = firmer interaction", "T1": "itself; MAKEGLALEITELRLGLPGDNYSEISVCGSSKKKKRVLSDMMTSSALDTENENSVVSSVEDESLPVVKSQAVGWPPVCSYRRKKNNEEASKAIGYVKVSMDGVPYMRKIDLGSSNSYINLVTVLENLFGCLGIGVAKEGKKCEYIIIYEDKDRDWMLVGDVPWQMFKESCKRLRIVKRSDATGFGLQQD", "T2": "itself; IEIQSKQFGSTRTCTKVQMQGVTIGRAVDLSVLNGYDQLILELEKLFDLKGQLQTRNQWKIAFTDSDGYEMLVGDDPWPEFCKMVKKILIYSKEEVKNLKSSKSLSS", "T3": "itself; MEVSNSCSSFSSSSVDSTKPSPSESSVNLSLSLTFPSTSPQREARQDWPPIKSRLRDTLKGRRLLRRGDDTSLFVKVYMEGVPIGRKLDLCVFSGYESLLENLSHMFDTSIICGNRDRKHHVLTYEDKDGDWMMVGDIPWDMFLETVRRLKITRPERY", "T4": "itself; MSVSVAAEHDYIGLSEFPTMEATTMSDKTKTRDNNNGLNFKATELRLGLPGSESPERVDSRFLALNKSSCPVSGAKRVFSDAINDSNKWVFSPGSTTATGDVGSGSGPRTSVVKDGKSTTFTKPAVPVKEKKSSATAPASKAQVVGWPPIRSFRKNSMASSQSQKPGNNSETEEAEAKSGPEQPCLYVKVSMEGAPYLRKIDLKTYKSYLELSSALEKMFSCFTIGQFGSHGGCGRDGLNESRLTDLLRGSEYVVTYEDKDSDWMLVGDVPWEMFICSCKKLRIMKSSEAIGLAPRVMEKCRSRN", "B3": "IAA6 (Arabidopsis thaliana, UniProt Q38824); chain MAKEGLALEITELRLGLPGDNYSEISVCGSSKKKKRVLSDMMTSSALDTENENSVVSSVEDESLPVVKSQAVGWPPVCSYRRKKNNEEASKAIGYVKVSMDGVPYMRKIDLGSSNSYINLVTVLENLFGCLGIGVAKEGKKCEYIIIYEDKDRDWMLVGDVPWQMFKESCKRLRIVKRSDATGFGLQQD", "B4": "ARF20 484-590 (Arabidopsis thaliana, UniProt Q9C7I9); chain IEIQSKQFGSTRTCTKVQMQGVTIGRAVDLSVLNGYDQLILELEKLFDLKGQLQTRNQWKIAFTDSDGYEMLVGDDPWPEFCKMVKKILIYSKEEVKNLKSSKSLSS", "B5": "IAA31 (Arabidopsis thaliana, UniProt Q8H174); chain MEVSNSCSSFSSSSVDSTKPSPSESSVNLSLSLTFPSTSPQREARQDWPPIKSRLRDTLKGRRLLRRGDDTSLFVKVYMEGVPIGRKLDLCVFSGYESLLENLSHMFDTSIICGNRDRKHHVLTYEDKDGDWMMVGDIPWDMFLETVRRLKITRPERY"}
{"Molecule": "B3 (IAA6)", "partner": "T1, itself", "positive tests": 0}
{"Molecule": "B4 (ARF20 484-590)", "partner": "T2, itself", "positive tests": 0}
{"Molecule": "B5 (IAA31)", "partner": "T3, itself", "positive tests": 2}
{"Molecule": "IAA27 (Arabidopsis thaliana, UniProt Q9ZSY8)", "partner": "T4, itself", "positive tests": 2}
{"note": "Some of these lines once more (series 1):"}
{"Change": "S2H", "normalised enrichment score": 0.704}
{"Change": "L7R", "normalised enrichment score": 0.622}
{"Change": "V3I", "normalised enrichment score": 1.44}
{"Change": "R5K F8L", "normalised enrichment score": 0.347}
{"Change": "F8Q", "normalised enrichment score": 0.545}
